Results collected from several papers.
Each line is one published result; not all experiments were run side by side. Values joined by “and” are separate records of one study, mostly repeats; a detail may differ.
Observed: metabolic stability
Species: human

O=C(Cc1ccccc1)Nc1nc2ccccc2n1Cc1ccccc1
half-life (liver microsomes): 50.8 min and 51 min

O=C(C1CC1)N1CCC=C(c2cc3c(Nc4cc5ncsc5cc4F)ncnc3s2)C1
half-life (liver microsomes): > 120 min

O=C(CCCCCCNC(=O)c1cc(C(=O)c2ccccc2)cn1Cc1ccc(F)cc1)NO
half-life (liver microsomes; 0.5 µM, pH 7.4): 510 min

Cc1cc2c(cc1O)C=C1C=CC(=O)C(C)(C)[C@H]1CC2
half-life (liver microsomes; 1 mM, pH 7.4): 28.7 min

O=C(O)C(Cc1c[nH]c2ccccc12)Nc1ccccc1 (stereo not shown)
half-life (liver microsomes; 1.5 µM, pH 7.4): 268 min

CCc1nc(N)nc(N)c1C#CC(C)c1cc(-c2cc(C)nc(C)c2)ccc1Cl (stereo not shown)
half-life (hepatocytes; 1 µM): 180 min

CC(=O)N1CCC=C(c2cc3c(Nc4cc5ncsc5cc4F)ncnc3s2)C1
half-life (liver microsomes): > 120 min

Cc1ccc(N2C(=O)c3ccccc3NC23C(=O)N(C)c2ccc(Br)cc23)cc1 (stereo not shown)
half-life (liver microsomes): < 2.3 min

CC12CC3CC(C1)CC(NC(=O)NC1CCC(Oc4ccc(C(=O)O)cc4)CC1)(C3)C2 (stereo not shown)
half-life (liver microsomes): 54 min

CCC(=O)NC1CC=C(c2cc3c(Nc4cc5ncsc5cc4F)ncnc3s2)CC1 (racemic)
half-life (liver microsomes): > 120 min

Cc1ccccc1OC[C@@H](N)c1ccccc1
half-life (liver microsomes): 136 min

CC(C)NC(=O)N1CC=C(c2cc3c(Nc4cc5ncsc5cc4F)ncnc3s2)CC1
half-life (liver microsomes): > 120 min

CC(C)(C)c1nc(-c2ccc(NC(=O)c3cccs3)cc2Cl)no1
half-life (liver microsomes): 56.8 min

CC(C)C[C@@H](NC(=O)[C@H](Cc1cccc2ccccc12)NC(=O)[C@H](CNC(=O)c1ccc2cc(F)ccc2c1)NC(=O)[C@H](CO)NC(=O)C1CCNCC1)C(=O)N[C@H](CO)C(=O)N1CCC[C@H]1C(=O)N[C@H](C(N)=O)[C@@H](C)O
half-life (liver S9; 3 µM, pH 7.4): > 240 min

COc1cc(-c2nc3ccc(C(=O)NCCCN4CCN(C5CCCCC5)CC4)cc3n2C2CCC2)cc(OC)c1OC
half-life (liver microsomes): 38.3 min

Cc1[nH]c2ccccc2c1CC(=O)N[C@@H](Cc1ccccc1)C(=O)N(C)c1ccccc1
half-life (liver microsomes; 1 µM, pH 7.4): < 1 min

CNC(=O)C1CCN(c2cc(C)c(F)cc2NC(=O)c2ccc(-c3cc(O)ccc3C)c(C)c2)CC1
half-life (liver microsomes; 2 µM): > 120 min

CC(C)NC(=O)NC1CC=C(c2cc3c(Nc4cc5ncsc5cc4F)ncnc3s2)CC1 (racemic)
half-life (liver microsomes): > 120 min

COc1cc(-c2nc3ccc(C(=O)NCCCN4CCN(C(=O)c5ccccc5)CC4)cc3n2C2CCC2)cc(OC)c1OC
half-life (liver microsomes): 15.4 min
